# Published values collected from several papers.
# ± gives the spread as reported.
SMILES,assay,system,conditions,recovery
CC(=O)CC(c1ccccc1)c1c(O)c2ccccc2oc1=O (stereo not drawn),,Caco-2 monolayer,"10 µM, 2 h",91.2%
C=CC(=O)Nc1cc(Nc2nccc(-c3cn(C)c4ccccc34)n2)c(OC)cc1N(C)CCN(C)C,storage stability,human plasma,"2 h, -80 °C, LLOQ level",104%
CCCCS(=O)(=O)N[C@@H](Cc1ccc(OCCCCC2CCNCC2)cc1)C(=O)O,rapid equilibrium dialysis,human platelet-free plasma,"2 µM, 24 h",116%
CC(=O)N1CCN(c2ccc(OCC3COC(Cn4ccnc4)(c4ccc(Cl)cc4Cl)O3)cc2)CC1 (stereo not drawn),equilibrium dialysis,mouse plasma,"1 µM, 6 h",93.2%
C=CC(=O)Nc1cc(Nc2nccc(-c3cn(C)c4ccccc34)n2)c(OCC(F)(F)F)nc1N(C)CCN(C)C,rapid equilibrium dialysis,human plasma,"0.2 µg/mL, time not given",78.5%
CC(=O)N[C@H]1[C@H]([C@H](O)[C@H](O)CO)OC(C(=O)O)=C[C@@H]1N=C(N)N,HPLC,HBSS,"10 µg/mL, 36 h, room temperature, short-term stability",101%
N#C[C@@]1(c2ccc3c(N)ncnn23)O[C@H](CO)[C@@H](O)[C@H]1O,plasma protein binding,human plasma,"1 µM, time not given",95.8%
O=C1CC[C@H](N2Cc3cc(N4CCN(CC5CCN(c6ccc([C@@H]7c8ccc(O)cc8CC[C@@H]7c7ccccc7)cc6)CC5)CC4)ccc3C2=O)C(=O)N1,rapid equilibrium dialysis,SD rat plasma,"2.5 µM, 6 h",102%
CC(C)(C)c1ccc(O)c(CN(Cc2cc(C(C)(C)C)ccc2O)C2CCC(NC(N)=O)CC2)c1 (stereo not drawn),,mouse plasma,"2000 ng/mL, 3 months, -20 °C, long-term storage",98.23 ± 0.87%

# Excerpt of the above:
SMILES,assay,system,conditions,recovery
C=CC(=O)Nc1cc(Nc2nccc(-c3cn(C)c4ccccc34)n2)c(OC)cc1N(C)CCN(C)C,storage stability,human plasma,"2 h, -80 °C, LLOQ level",104%
